Earlier results as cited in several papers.
Numbered parts are unrelated; values within a part may stem from several laboratories. Numbers after ± are the reported error.
Sequence of UniProt Q61618 (whole entry, looked up): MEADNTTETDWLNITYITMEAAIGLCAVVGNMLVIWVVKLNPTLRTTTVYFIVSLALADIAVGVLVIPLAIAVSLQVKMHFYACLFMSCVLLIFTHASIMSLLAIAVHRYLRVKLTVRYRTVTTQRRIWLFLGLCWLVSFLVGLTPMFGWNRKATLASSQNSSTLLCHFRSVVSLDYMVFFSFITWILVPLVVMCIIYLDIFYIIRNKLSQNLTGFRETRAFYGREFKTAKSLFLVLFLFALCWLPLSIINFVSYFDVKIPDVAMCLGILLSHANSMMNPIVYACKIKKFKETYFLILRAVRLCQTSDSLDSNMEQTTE
Sequence of UniProt P46098 (whole entry, looked up): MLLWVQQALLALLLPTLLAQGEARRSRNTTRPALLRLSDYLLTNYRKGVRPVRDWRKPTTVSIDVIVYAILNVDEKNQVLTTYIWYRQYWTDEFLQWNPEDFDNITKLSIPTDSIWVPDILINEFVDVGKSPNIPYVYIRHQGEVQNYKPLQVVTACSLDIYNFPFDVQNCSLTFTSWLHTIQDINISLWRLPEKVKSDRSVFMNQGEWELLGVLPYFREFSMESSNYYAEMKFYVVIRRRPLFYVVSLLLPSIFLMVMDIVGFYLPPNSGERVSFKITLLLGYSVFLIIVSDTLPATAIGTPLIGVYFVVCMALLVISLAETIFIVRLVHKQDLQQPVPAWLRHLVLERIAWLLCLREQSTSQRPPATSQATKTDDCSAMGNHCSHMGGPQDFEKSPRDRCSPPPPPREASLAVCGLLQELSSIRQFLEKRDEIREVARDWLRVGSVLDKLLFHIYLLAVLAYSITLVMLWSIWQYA
Sequence of UniProt Q01959 (whole entry, looked up): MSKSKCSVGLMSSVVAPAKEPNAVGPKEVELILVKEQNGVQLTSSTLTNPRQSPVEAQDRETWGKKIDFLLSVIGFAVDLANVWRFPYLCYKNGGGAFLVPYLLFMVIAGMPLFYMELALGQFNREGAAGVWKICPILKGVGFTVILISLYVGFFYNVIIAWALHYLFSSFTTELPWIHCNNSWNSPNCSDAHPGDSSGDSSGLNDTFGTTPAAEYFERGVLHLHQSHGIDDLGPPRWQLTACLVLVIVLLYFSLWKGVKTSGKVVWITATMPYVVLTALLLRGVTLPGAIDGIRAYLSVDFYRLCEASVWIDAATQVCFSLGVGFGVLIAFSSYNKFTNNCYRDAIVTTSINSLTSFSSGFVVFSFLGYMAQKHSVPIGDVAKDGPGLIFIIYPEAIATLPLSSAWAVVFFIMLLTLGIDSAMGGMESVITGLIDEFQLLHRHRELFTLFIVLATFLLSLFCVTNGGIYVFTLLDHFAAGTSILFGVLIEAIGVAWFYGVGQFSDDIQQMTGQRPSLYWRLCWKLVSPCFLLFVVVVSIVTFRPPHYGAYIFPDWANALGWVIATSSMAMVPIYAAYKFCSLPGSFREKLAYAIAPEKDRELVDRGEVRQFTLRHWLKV

Sample 1
Target: HLA class I histocompatibility antigen, A alpha chain, allele A*26:03 (Homo sapiens, UniProt P04439)
Observed: peptide-MHC binding
Form: peptide
| Molecule | IC50 [µM] |
| --- | --- |
| EEDAAVDDL | > 20 |
| FYLFTFTIY | > 20 |
| SYVFNFHKY | > 20 |
| RMIESRMSK | > 20 |
| NRLKPRDFK | > 20 |
| QVIFKCVPK | > 20 |
| KLDFIRNTK | > 20 |
| TVLEFILQK | > 20 |
| WEITYLGTT | > 20 |
| TMLYNKMEF | > 20 |
| LLLLISLVY | > 20 |
| QVGIFLICK | > 20 |
| VSIRGSHHK | > 20 |
| GLYRLNFRR | > 20 |
| IIGLLKIFR | > 20 |
| IEVKFHPIL | > 20 |
| SLYKYLLLR | > 20 |
| SYINRTGTF | > 20 |
| ETRYSWAIL | 0.454 |
| LLRRRPYPL | > 20 |
| LYNTIAVLY | > 20 |
| ETFRLLRSF | 0.298 |
| RRSLLAHVR | > 20 |
| IFLIITKVF | > 20 |
| YKEPNSIIL | > 20 |

Mixed results
| Compound | tested on | test | test system | conditions | how to read | quantity | value |
| --- | --- | --- | --- | --- | --- | --- | --- |
| COc1cccc(C2(O)CCCCC2CN(C)C)c1 (centres unmarked) | – | – | human, plasma | dose not given, range of reported values | – | AUC | 2.55 to 11400 µM·h |
| CC[C@H](C)C(=O)O[C@H]1C[C@H](O)C=C2C=C[C@H](C)[C@H](CC[C@@H](O)C[C@@H](O)CC(=O)O)[C@H]21 | OATP1B3 | – | – | – | – | share of hepatic uptake clearance | 4% |
| CCCC(CCC)C(=O)O | – | – | male rat | i.p., MES seizure test | – | protective index | 2.1 |
| CN1[C@@H]2CC[C@H]1C[C@@H](OC(=O)c1cc(Cl)cc(Cl)c1)C2 | HTR3A (Homo sapiens, UniProt P46098) | – | – | historical reference value | – | Hill coefficient | 0.8 |
| Cc1c2ccccc2c(C)c2c1ccc1ccccc12 | HepaRG | DNA damage, comet | – | – | – | lowest effective concentration | 25 µM |
| O=C(O)C(F)(F)C(F)(F)C(F)(F)C(F)(F)C(F)(F)C(F)(F)C(F)(F)F | human serum albumin | binding | – | high-affinity site, Sudlow site II | – | Kd | 0.357 µM |
| CCN(N=O)C(N)=O | HepG2 | DNA damage, comet | – | – | – | lowest effective concentration | 640 µM |
| Fc1ccc(C(OCCN2CCN(CCCc3ccccc3)CC2)c2ccc(F)cc2)cc1 | SLC6A3 (Homo sapiens, UniProt Q01959) | – | – | historical reference value | – | Hill coefficient | 0.9 |
| O=C(O)C(F)(F)C(F)(F)C(F)(F)C(F)(F)C(F)(F)C(F)(F)C(F)(F)C(F)(F)F | CYP2C19 | inhibitor | – | Tox21 screening | – | IC50 | 55.4 ± 15.5 µM |
| COc1cc2c(Oc3ccc4[nH]c(C)cc4c3F)ccnc2cc1OCC1(N)CC1 | – | – | ICR mice | 14 days | – | LD50 | 1740 mg/kg |
| CCCCCOc1ccc(-c2ccc(-c3ccc(C(=O)N[C@H]4C[C@@H](O)[C@@H](O)NC(=O)[C@@H]5[C@@H](O)[C@@H](C)CN5C(=O)[C@H]([C@@H](C)O)NC(=O)[C@H]([C@H](O)[C@@H](O)c5ccc(O)cc5)NC(=O)[C@@H]5C[C@@H](O)CN5C(=O)[C@H]([C@@H](C)O)NC4=O)cc3)cc2)cc1 | – | – | healthy volunteers | 200 mg day 1, 100 mg days 2-8 | – | AUC(0-24) | 104 µg·h/mL |
| CCN(CC)N=O | – | fingerprint mutation, item: T>G substitution | mouse, liver | concentration not given | – | mutation frequency | increased |
| COc1cc(CCNc2nc(C#Cc3ccccc3)nc3c2ncn3[C@H]2[C@H](O)[C@H](O)[C@@H]3C[C@@H]32)ccc1O | Adenosine receptor A3 (Mus musculus, UniProt Q61618) | – | – | – | baseline: unsubstituted N6 analogue | affinity enhancement | 27 fold |
| CC(C)c1cccc(=O)c(O)c1 | – | – | mouse | dietary, long-term daily dosing | – | tolerated dose | 100 mg/kg |
| CC(C)c1cc2c(c(O)c1O)[C@@]1(C(=O)O)CCCC(C)(C)[C@@H]1CC2 | glutathione S-transferase | inhibitor | – | – | – | Ki | 28 ± 9 µM |
| O=C(O)C(F)(F)C(F)(F)C(F)(F)C(F)(F)C(F)(F)C(F)(F)C(F)(F)C(F)(F)C(F)(F)C(F)(F)F | CYP2C19 | – | – | concentration not given | – | activity | inactive |
| N=c1c2c(-c3ccccc3)c(-c3ccccc3)n(Cc3ccccc3)c2ncn1[C@H]1CC[C@H](O)CC1 | – | – | mouse | intravenous, 3 mg/kg | – | Vdss | 16.9 L/kg |
| O=C(O)C(F)(F)C(F)(F)C(F)(F)C(F)(F)C(F)(F)C(F)(F)C(F)(F)F | – | one-compartment model | human, blood and urine | – | – | t1/2 | 1.3 years |
| C=C[C@@H]1C[C@]1(NC(=O)[C@@H]1C[C@@H]2CN1C(=O)[C@H](C(C)(C)C)NC(=O)O[C@@H]1C[C@H]1CCCCCc1nc3ccc(OC)cc3nc1O2)C(=O)NS(=O)(=O)C1CC1 | CYP2C19 | – | human liver microsomes | – | – | IC50 | > 100 µM |
| CCc1c2c(nc3ccc(OC(=O)N4CCC(N5CCCCC5)CC4)cc13)-c1cc3c(c(=O)n1C2)COC(=O)[C@]3(O)CC | – | item: offspring development | rat | dosing before to early pregnancy | – | NOAEL | 6 mg/kg |
| NC(=O)O[C@@H](Cn1ncnn1)c1ccccc1Cl | – | – | mouse | i.p., 6 Hz seizure test, 32 mA | – | protective index | 3.2 |
| CN[C@H](CC(C)C)C(=O)N[C@H]1C(=O)N[C@@H](CC(N)=O)C(=O)N[C@H]2C(=O)N[C@H]3C(=O)N[C@H](C(=O)N[C@H](C(=O)O)c4cc(O)cc(O)c4-c4cc3ccc4O)[C@H](O)c3ccc(c(Cl)c3)Oc3cc2cc(c3O[C@@H]2O[C@H](CO)[C@@H](O)[C@H](O)[C@H]2O[C@H]2C[C@](C)(N)[C@H](O)[C@H](C)O2)Oc2ccc(cc2Cl)[C@H]1O | – | – | Sprague Dawley rat | dose not given, 10 days | – | nephrotoxicity incidence | 60% |
| CNC(=C[N+](=O)[O-])NCCSCc1ccc(CN(C)C)o1 | – | – | human, plasma | dose not given, range of reported values | – | AUC | 5.66 to 122 µM·h |
| Cc1cccc(-c2[nH]c(CNc3ccccc3F)nc2-c2ccc3ncnn3c2)n1 | – | – | Beagle dog | oral, 14 days | – | MTD | < 100 mg/kg/day |
| CCCCCCCCCCCCCC(=O)O[C@@H]1[C@@H](C)[C@@]2(O)[C@@H](C=C(CO)C[C@]3(O)C(=O)C(C)=C[C@@H]23)[C@@H]2C(C)(C)[C@]12OC(C)=O | phorbol ester receptor | radioligand binding | – | – | – | IC50 | 0.00079 µM |

Repeated from above (sample 1):
| Molecule | IC50 [µM] |
| --- | --- |
| FYLFTFTIY | > 20 |
| SYVFNFHKY | > 20 |
| RMIESRMSK | > 20 |
